Measurements of several laboratories.
A part holds a random share of what one study measured.

The chains behind the UniProt entries cited, without tags or fusion partners.
UniProt O95382, whole entry: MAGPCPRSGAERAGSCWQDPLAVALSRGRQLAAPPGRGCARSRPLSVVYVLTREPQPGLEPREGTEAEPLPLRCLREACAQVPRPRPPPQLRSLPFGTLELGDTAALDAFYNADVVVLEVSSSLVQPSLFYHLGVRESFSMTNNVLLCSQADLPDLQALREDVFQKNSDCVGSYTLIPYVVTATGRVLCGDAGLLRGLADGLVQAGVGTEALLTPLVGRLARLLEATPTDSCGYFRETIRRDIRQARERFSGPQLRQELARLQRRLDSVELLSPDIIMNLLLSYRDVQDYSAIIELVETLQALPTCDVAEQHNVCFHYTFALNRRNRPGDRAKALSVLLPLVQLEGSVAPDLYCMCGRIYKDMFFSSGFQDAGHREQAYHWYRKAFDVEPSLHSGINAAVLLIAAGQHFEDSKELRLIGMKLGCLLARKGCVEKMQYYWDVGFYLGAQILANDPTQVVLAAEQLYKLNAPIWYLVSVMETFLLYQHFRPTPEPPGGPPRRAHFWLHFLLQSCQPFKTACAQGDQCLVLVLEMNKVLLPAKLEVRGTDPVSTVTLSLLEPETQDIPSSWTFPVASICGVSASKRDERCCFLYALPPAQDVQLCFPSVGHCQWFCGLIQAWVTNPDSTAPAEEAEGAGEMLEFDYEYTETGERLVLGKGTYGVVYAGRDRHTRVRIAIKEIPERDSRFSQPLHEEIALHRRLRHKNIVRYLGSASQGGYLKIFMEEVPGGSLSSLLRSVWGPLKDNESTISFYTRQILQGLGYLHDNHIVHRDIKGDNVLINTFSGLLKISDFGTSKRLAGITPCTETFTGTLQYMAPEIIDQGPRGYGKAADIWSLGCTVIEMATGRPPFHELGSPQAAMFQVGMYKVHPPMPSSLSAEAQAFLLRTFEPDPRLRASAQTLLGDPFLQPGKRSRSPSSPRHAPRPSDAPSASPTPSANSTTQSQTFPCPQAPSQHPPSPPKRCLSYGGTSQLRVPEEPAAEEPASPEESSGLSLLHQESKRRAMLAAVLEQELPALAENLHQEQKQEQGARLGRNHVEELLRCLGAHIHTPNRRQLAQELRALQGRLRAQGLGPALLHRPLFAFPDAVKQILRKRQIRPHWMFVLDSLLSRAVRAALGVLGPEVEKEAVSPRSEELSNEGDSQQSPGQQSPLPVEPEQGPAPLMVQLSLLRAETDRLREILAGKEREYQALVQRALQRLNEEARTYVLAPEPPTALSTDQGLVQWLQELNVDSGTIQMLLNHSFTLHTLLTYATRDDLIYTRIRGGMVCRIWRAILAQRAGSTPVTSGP
UniProt P07949, whole entry M918T, looked up: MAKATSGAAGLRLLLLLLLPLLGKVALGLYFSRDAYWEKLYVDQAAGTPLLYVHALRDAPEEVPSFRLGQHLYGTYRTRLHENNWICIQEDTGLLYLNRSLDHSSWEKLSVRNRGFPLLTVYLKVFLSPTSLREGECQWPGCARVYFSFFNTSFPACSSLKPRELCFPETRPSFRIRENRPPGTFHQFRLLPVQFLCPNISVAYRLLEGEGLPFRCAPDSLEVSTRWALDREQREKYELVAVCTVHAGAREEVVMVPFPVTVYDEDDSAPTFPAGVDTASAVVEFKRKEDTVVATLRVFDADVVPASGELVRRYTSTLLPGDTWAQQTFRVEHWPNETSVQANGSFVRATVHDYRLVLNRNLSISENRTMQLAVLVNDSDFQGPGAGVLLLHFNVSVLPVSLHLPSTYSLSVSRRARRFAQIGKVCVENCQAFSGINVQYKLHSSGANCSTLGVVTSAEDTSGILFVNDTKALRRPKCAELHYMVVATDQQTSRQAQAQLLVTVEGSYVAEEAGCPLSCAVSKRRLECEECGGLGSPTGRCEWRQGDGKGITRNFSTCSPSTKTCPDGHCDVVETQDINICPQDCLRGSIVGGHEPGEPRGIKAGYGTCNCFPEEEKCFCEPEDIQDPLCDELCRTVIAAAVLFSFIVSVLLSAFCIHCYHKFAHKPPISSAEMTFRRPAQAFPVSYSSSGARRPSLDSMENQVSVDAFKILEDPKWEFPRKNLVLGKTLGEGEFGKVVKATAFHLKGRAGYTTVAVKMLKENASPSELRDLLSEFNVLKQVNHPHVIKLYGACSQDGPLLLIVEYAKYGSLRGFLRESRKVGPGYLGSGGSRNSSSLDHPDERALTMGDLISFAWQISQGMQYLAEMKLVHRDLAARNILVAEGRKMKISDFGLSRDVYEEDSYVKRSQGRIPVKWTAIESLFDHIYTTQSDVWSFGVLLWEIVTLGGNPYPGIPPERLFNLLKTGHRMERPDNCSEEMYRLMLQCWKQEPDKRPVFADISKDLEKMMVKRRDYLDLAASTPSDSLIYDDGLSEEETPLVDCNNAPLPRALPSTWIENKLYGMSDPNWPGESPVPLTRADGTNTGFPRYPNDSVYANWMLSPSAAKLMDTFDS
UniProt P54762, whole entry, looked up: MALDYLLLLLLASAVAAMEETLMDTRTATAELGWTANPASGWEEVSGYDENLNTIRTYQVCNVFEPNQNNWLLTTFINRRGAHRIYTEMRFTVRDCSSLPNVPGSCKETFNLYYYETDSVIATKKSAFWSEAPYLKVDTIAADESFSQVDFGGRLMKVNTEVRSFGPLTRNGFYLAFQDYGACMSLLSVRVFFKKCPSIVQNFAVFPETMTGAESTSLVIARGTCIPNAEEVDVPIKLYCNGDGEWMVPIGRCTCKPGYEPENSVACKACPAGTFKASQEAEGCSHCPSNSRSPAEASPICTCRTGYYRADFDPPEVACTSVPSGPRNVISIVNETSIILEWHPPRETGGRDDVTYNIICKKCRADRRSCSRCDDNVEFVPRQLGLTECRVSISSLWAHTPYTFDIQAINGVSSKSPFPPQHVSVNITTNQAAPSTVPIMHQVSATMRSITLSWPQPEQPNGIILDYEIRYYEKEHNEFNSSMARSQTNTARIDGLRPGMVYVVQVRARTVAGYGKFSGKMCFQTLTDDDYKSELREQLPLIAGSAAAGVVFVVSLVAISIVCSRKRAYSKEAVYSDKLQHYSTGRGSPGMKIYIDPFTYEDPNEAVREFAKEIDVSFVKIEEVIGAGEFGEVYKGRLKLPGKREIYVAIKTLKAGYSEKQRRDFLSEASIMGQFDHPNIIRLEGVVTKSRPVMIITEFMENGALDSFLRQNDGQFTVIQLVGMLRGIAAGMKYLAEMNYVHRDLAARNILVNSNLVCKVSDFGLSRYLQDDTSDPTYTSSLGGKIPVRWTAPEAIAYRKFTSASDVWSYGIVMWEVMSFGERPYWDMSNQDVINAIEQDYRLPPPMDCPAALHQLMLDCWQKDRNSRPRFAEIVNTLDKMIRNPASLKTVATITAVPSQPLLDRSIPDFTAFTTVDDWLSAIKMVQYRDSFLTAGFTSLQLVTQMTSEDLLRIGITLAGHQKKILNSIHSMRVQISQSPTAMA
UniProt Q08881, whole entry: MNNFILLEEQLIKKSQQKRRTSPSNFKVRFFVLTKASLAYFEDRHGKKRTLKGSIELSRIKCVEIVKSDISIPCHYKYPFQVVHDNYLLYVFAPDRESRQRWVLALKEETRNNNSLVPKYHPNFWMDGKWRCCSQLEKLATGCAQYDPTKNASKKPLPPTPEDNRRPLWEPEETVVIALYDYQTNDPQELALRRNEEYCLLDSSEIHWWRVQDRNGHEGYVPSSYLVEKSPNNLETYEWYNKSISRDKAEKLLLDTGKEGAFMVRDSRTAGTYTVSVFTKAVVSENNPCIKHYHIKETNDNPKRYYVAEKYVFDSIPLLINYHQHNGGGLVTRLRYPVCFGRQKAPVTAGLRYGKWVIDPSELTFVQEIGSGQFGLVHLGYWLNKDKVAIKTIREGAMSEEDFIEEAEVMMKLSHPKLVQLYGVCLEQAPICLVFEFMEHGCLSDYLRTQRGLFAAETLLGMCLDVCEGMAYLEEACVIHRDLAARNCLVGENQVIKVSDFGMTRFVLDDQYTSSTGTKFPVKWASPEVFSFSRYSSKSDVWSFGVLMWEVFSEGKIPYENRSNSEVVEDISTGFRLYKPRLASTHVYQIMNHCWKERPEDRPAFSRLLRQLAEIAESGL
UniProt P04150, whole entry: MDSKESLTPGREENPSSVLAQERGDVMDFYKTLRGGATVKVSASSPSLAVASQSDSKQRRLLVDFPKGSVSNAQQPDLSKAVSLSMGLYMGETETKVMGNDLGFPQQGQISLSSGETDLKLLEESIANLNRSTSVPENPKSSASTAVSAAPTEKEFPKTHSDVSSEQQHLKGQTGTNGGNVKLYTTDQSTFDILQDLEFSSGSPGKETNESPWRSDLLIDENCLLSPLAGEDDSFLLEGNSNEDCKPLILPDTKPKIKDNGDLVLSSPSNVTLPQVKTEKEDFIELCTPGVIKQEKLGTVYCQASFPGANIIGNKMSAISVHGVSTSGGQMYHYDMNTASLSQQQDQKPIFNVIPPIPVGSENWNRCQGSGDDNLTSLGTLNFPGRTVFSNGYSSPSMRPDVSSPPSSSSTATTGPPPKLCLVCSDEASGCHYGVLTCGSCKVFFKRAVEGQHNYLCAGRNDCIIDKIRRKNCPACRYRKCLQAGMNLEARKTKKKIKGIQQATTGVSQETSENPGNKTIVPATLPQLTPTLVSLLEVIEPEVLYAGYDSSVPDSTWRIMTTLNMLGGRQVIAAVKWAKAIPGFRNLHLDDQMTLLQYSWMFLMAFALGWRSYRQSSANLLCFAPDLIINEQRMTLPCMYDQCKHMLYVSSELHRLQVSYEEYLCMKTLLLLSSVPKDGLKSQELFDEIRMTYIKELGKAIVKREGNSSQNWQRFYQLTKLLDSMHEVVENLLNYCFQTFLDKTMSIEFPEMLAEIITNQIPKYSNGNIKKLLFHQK
UniProt O60674, whole entry: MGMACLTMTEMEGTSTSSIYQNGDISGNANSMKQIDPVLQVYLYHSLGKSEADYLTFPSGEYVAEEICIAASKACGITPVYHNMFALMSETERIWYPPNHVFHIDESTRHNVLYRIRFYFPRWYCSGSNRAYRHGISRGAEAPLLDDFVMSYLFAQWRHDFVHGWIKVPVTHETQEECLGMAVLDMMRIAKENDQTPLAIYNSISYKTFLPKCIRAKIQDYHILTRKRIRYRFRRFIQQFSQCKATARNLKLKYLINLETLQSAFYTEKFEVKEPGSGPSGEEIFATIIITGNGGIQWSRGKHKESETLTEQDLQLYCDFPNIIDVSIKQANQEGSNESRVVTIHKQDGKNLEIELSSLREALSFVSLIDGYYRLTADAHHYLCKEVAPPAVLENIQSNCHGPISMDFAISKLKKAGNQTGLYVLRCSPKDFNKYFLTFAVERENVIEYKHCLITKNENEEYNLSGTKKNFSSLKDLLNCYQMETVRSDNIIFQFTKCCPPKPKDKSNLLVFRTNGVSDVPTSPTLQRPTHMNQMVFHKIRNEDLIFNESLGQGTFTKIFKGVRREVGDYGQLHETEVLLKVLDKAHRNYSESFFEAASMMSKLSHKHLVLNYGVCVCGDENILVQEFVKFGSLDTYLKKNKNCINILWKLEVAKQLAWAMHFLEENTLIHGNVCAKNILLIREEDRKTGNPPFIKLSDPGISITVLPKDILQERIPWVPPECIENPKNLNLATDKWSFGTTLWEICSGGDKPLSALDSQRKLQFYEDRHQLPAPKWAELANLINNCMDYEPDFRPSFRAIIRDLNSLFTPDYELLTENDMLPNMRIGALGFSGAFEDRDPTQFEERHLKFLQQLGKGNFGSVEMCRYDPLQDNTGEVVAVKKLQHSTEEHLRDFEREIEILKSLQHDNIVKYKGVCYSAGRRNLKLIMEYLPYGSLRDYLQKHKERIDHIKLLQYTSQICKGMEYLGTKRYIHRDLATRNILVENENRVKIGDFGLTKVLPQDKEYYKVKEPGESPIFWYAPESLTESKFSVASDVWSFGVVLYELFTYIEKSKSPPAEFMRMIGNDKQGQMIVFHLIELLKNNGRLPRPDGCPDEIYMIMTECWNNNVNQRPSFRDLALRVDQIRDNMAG

Sample 1 — mode: inhibitor; tested at: 5 µM; endpoint: log2 fold change
SMILES: CCN1CCN(Cc2ccc(NC(=O)c3ccc(C)c(/C=C/c4cnc5[nH]ccc5c4OC)c3)cc2C(F)(F)F)CC1
Mitogen-activated protein kinase kinase kinase 6, with CDC37 (MAP3K6, Homo sapiens, UniProt O95382); kinome profiling; human cells; relative to: vehicle: 0.249
RET (Homo sapiens, UniProt P07949, M918T); kinase activity, cell-based kinome screen; relative to: vehicle: 0.002
EPHB1 (Homo sapiens, UniProt P54762); cell-based kinome screen; human cells; relative to: untreated: 0.346
ITK (Homo sapiens, UniProt Q08881); kinome profiling; human cells; relative to: vehicle: 0.421

Further values, each from its own experiment
NR3C1: Glucocorticoid receptor (NR3C1, Homo sapiens, UniProt P04150)
C[C@]12CC[C@H](O)CC1=CC[C@H]1[C@@H]2CC[C@@]2(C)C(N(CCO)CCO)CC[C@@H]12 (some centres unmarked)
EC50 (NR3C1; nuclear translocation, agonist, enzyme fragment complementation): > 9 µM

COc1cc(CC(=O)NCC(NC(=O)C(CCCNC(=O)c2cccc(I)c2)NC(=O)C(Cc2ccc(C(F)(F)P(=O)(O)O)cc2)NC(=O)c2ccc(C)c(Br)c2)C(N)=O)ccc1O (centres unmarked)
Foxo1 Ser253 phosphorylation (primary mouse hepatocytes; Western blot; 200 nM, with: insulin 5 nM, 5 min; relative to: insulin alone): 2.9 fold

C[C@@H]1CC[C@H]2[C@H](C)C3[C@H](C[C@H]4[C@@H]5CC=C6C[C@@H](O)CC[C@@]6(C)[C@@H]5C[C@@H](O)[C@]34C)N2C1 (some centres unmarked)
EC50 (NR3C1; nuclear translocation, agonist, enzyme fragment complementation): > 9 µM

CC#C/C(=N\OC[C@H]1COCCN1)c1ccc2ncnc(Nc3ccc(OCc4cccc(F)c4)c(Cl)c3)c2c1
inhibition (JAK2 (Homo sapiens, UniProt O60674); kinase activity; 10 µM): -6.2%

Some of these lines once more (sample 1):
ITK (Homo sapiens, UniProt Q08881); kinome profiling; human cells; relative to: vehicle: 0.421
